Published values gathered from unrelated publications.
Each numbered part is a random draw from the data of one study; scales do not carry over between parts.

Block 1
Target: Interferon regulatory factor 7, full length, phosphomimetic (IRF7, Homo sapiens, UniProt Q92985, residues 1-503, S471D/S472D/S475D/S476D/S477D/S483D/S484D/S487D)
Technique: protein-binding microarray
Form: double-stranded DNA, one strand shown
Matrix: in vitro
Concentration: 2200 nM top
Notes: 60-bp whole probe
With: salmon DNA 0.4 mg/ml
Baseline: random background probes
Direction: higher = stronger binding
Constant ends, left off below: GCCTAGCAC … GTCTTGATTCGCTTGACGCTGCTG
Target sequence (chain): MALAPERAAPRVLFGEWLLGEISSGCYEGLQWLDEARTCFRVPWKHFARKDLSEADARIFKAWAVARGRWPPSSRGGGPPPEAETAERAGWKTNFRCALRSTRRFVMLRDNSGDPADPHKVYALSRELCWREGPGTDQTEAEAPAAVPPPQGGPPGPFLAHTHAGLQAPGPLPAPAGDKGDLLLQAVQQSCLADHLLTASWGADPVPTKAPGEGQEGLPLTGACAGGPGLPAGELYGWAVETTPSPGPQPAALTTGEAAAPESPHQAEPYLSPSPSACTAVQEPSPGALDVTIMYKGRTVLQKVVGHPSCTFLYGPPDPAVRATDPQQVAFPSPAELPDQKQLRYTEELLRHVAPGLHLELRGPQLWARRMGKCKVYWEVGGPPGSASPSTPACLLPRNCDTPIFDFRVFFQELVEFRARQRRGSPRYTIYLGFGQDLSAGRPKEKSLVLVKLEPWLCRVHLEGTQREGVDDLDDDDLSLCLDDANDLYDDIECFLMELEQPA
Oligonucleotide	fitted relative affinity [z-score]
GGAGTTTTCAGTCCTGGGATGTGCTAG	1.05
CTAGGTTTCCTTCTCCTTTAGTGCTAG	2.28
GACGGCTTCCTTCTCCTGACGTGCTAG	1.03
AGATTCCTCTCACCTCGGCCTGTGCTA	1.42
TTAGGTCTCGGTATCGATTAGTGCTAG	0.558
GACGGTTCCTTTTTCCTGACGTGCTAG	2.48
AGATGTGTCTTAAATAGGGCAGTGCTA	-0.491
GACAGTTTCGACACTGGGGACGTGCTA	3.96
TTAGGTTTCGGGGCTGGGTTAGTGCTA	2.17
TCACGTTACTTCCTCAAACTGTGCTAG	2.11
GGCTGTTTGGTCCTGATCCTGTGCTAG	0.589
TTAGAACTGGGGACTAGATTAGTGCTA	-0.389
GACGGACTGCTTAGCCTGACGTGCTAG	-0.392
GACGGCTTCGGGACTGGGGACGTGCTA	-0.797
TTAGATCTCAGTATAGATTAGTGCTAG	-0.183
GACGATCTCAGACAGGAGACGTGCTAG	-0.106
TCAGATTTCAGGAATTGAACTGTGCTA	-0.24
TCATTCATGAAATTTTAGACTGTGCTA	-0.182
CACGAACTGAGTTTCGAGACGTGCTAG	2.4

Block 2
Target: Ras GTPase-activating protein-binding protein 1, C-terminal RGG region (G3BP1, Homo sapiens, UniProt Q13283)
UniProt Q13283, sequence (whole entry, looked up): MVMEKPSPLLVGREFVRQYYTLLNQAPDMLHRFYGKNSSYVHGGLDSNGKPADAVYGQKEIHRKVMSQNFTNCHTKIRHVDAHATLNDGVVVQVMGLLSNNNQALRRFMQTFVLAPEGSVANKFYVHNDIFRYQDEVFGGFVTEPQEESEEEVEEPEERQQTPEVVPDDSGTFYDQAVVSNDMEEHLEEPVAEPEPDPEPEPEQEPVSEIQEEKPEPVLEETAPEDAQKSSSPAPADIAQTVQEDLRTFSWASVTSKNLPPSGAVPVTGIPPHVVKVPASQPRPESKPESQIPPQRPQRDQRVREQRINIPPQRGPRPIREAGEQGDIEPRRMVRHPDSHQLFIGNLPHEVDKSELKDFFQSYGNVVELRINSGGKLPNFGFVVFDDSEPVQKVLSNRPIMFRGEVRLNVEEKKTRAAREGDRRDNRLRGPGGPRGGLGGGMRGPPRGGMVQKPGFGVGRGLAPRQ
Technique: RNA Bind-n-Seq
Form: RNA
Matrix: in vitro
Concentration: 1 µM
Notes: whole 134-nt RNA, ends assumed
With: 150 mM KCl
Baseline: input library
Direction: higher = stronger binding
Constant ends, left off below: GGGAGUUCUACAGUCCGACGAUC … UGGAAUUCUCGGGUGUCAAGG
Oligonucleotide	log2 enrichment
UGGCCCUGGUAGCAUGCGGGGAGGAAGAGGUGGCCUCAUGGAUCGUGGUGGUCCCGGUGGAAUGUUCAGAGGUGGCCGUGGUGGAGACAG	2.31
UGGGAGGUGGAUUUUGUUUAUUUUUUUAGCUCAUUUCCAGGGGUGGGAAUUUUUUUUUAAUAUGUGUUAUGAAUAAAGUUGUUUUUGAAA	3.19
GCUCGCCCGAGCUCAGAGGUGAUCAAAGACGCCAACUUGUACAUCAGCGGGCUCCCGCGGACCAUGACCCAGAAGGACGUAGAAGACAUG	-1.3
UUCUCUUCACUCCCACCAGUGCGGGUGGUCUUUGCAGUGACUAUGGAAGGCAGUGCACGGAAAGUCAUCACUGUCCGGUCAGCCCUCAUU	-0.509
UAACUUUAGAGGAGGAUCUGAUGGAUAUGGCAGUGUACGUGGAUUUGGGGAUGGCUAUAAUGGGUAUGGAGGAGGACCUGGAGGUGGCAA	-1.19
CAAGUCCUGUGCUACACAUCGUAUGUACCGAAUCGGGCCCGGGCCCGGGGCCCGGGAAAGUAUUAUGUUACGCCGUUCGGAUCUGCACUU	-2.27
UAACUUUAGAGGAGGAUCUGAUGGAUAUGGCAGUGGACGUGGAUUUGGGGAUGGGUAUAAUGGGUAUGGAGGAGGACCUGGAGGUGGCAA	-0.413
UGUGAGCUGACUUUUUGGAUCAACUUUACUUUUCCCUUCUUUUUAGGCAAUUGAAGAUGAAGGUGGUAAUCCUGACGAAAUUGAAAUUAC	-0.567
CACAGACAACACGCACCCACACAGACACAGAGGGAAGGGGUUGGGAUGGGGACAGGGUGCACAGCAGGGCCGGGUAGGACCCCAGCCCCU	-1.02
GUCCUGUGCUACACAUCGUAUGUACCGAAUCGGGGUUUGGGGUUUGGGGAAAAAGGGGAAAGUAUUAUGUUACGCCGUUCGGAUCUGCAC	2.86
GCAGGAAGUAAAAACAAAUGGAAAUGCUUCGGAUAGUGGCAGGGGUGGGGGUUGCUAAGGAAAGGGUUGGAUGGGAGUGGGUAAAGAGUU	1.8
GUCCUGUGCUACACAUCGUAUGUACCGAAUCGGGGAAAAAGGGGUUUGGGGUUUGGGGAAAGUAUUAUGUUACGCCGUUCGGAUCUGCAC	3.13
CCUCAAGUCCUGUGCUACACAUCGUAUGUACCGAAUCGGAGGGGAGGGAGGGAAAGUAUUAUGUUACGCCGUUCGGAUCUGCACUUCCAG	1.3
CACAGACAACACGCACCCACACAGACACAGAGGGAAGGGGUUGGGAUGGGGACAGGGUGCACAGCAAAGCGGGGUAGGACCCCAGCCCCU	-0.147

Block 3
Target: RNA binding protein fox-1 homolog 2, RRM domain, GST-SBP tag (RBFOX2, Homo sapiens, UniProt O43251-10, residues 100-194)
Technique: RNA Bind-n-Seq
Form: RNA
Matrix: in vitro
Concentration: 365 nM
Notes: natural RNA segment, single round, ends assumed
Baseline: no-protein control
Direction: higher = stronger binding
Constant ends, left off below: GGGAGUUCUACAGUCCGACGAUC … UGGAAUUCUCGGGUGCCAA
Target sequence (chain): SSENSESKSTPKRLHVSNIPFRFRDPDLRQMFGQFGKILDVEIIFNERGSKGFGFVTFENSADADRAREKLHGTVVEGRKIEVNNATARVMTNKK
Oligonucleotide	RBNS enrichment (R)
ACAUUUUCUAGAUUUUUUUGUUGUUAUAUAUUGAGAUAUAAAAUAUGGCUAUGUUGCUUAAGAUUCUCAGGGAUAGACUUAUUUUUGUUAACUUCAUUCUUUCCUGCUGU	0.888
GCAGUGUCCUGUACAAAACUGUGCUGUGACUGUGCGGUAGGCCUGGACAUGGCAAAGAGAAUACAGCGAAGCCCCUUCUCUUCCUACCAAACAACUCUGUAGAGCUCUCU	0.173
GCUGCUGUUGGGCUUUCGUUUCUGCAAUUCAGCUUUGUUUAAAGUGAUUUGAAAAAUACUCAUUCUGAACAUAUCCAUGCGCAAUCAUGAUAACUGUUGUGAGUAGUGCU	0.268
UUCCUCCUGAAACUUGAGGAAGUCUUUUGUCUUCCAGCUGCUCAGGGUUCUCUGGUCCAAGACCCUGCUUUAAAGAGAGUCUUUGGCGUGCUCAGACUCCAGCGCUCCGU	0.229
UGCCCUCUGUGCUAUCAUCUUAUCAUCAAUUAUUAGACAAAUCCCACUGGCCUACAGUCUUGCUUCUGCAGCACCCACUUUGUCUCCUCAGGUAGUGAUGAAUUAGUUGC	0.632
UUCCACCAGCUUCUUCCCCUCUUCUCAGUCAUUACUGAGAAGGAUUGGUAUUCAAAGCAAAACUGACAGUUUUCCCCUGUGUCAGGUUUUGCCAUCCCAAUCUUAAGACU	0.635
GAUUUUGUUACAGAUGUUUAUGGUGGGGUUGGGGGUUGGGGAGCACCAUGAUCUACGGGACUGUGCUUGGUCCUUUGCUUCUGCCCGUUCCCAUCUCACCUCACCAUUCC	0.558
UGAACACGGCCAAAAUCCAUAAAGAUUAUAAAAGCAAACUAAGUUGUGAAGCUAUAGUACAUGUAGGCAUUUAGUUAAGUAUAGCAAUUCAAACUGACCUGCAUCCAUCC	1.32
UUUCCAUCCAAGAGUCAGUGUUGCUGUGAGAUUUGACGUGUACUUGCUAAAGACGAGAGAGAAACCACGUGAAACCUACAUUGCUAUGUUCAUAAUUGCCAAAGCAGUAU	0.378
UCUUUUUCUUUUUUUUUGGAGGGGGGAGGCAGGGUCUUGCUCUGUCCCUCAGGCUGGAGCUUAGCUCAGUGCAGCCUCCAACUCCUGGGCUCAAGCAAUCCUCCCACUUU	0.26
CCAUUGUGUGAAUCUCAAAUAUCUCAAGACACGCAGCCUAAGCAUCUCCAUUAUCCCGUGCACAUAAGCCAAUCCAGUUGAAUGUGGACAUUACGUUCAAGUGGGCCUCC	0.487
GCACCCCUGUAGUCUCAGAACUCUAGAAGGUAAGGCAGGGAGGGUAGCCUGAGCCCAAGGCCAGCCUGGGCUACCUAACAAGACCCUGUCUCUAAAAGAAAAAAGAAUUA	0.527

Block 4
Target: Prothrombin, mature alpha-thrombin (F2, Homo sapiens, UniProt P00734)
Technique: aptamer microarray, sandwich
Form: DNA with 2'F-ANA
Matrix: in vitro
Concentration: 200 nM
Notes: whole 15-mer aptamer, many near background
With: Cy3 exosite-II aptamer, 400 nM
Direction: higher = stronger binding
Oligonucleotide: GGTTGGTGTGGTTGG
Modification	mean fluorescence intensity [a.u.]
2'F-ANA at 2 3 4 7 8 9 14 15	309
2'F-ANA at 2 4 5 7 12 13 15	95
2'F-ANA at 1 2 3 4 5 6 7 8 10 13 14 15	99.6
2'F-ANA at 1 2 3 5 8 9 13 14 15	47.7
2'F-ANA at 2 4 10 13 15	79.1
2'F-ANA at 1 3 5 9 10 12 13 14 15	44.7
2'F-ANA at 3 4 6 8	678
2'F-ANA at 2 4 6 7 8 15	351
2'F-ANA at 2 3 6 8 12 13 15	809
2'F-ANA at 1 3 4 8 13 15	210
2'F-ANA at 1 2 4 5 7 11	49
2'F-ANA at 1 3 6 9 10 14	59.7
2'F-ANA at 1 2 4 7 8 9 12	277
2'F-ANA at 3 5 6 7 8 12 14 15	58.2
2'F-ANA at 1 2 8 9 11 12	310
2'F-ANA at 2 3 5 7 8 9 10 15	79.6
2'F-ANA at 3 4 7 8 9 10 12 13	350
2'F-ANA at 4 5 6 7 11 15	61.3
2'F-ANA at 5 7 8 11 15	121
2'F-ANA at 2 6 10 11 12	152
2'F-ANA at 1 2 3 5 7 9 13	52.1
2'F-ANA at 1 5 6 9 10 11 13 15	63
2'F-ANA at 6 8 9 11 12 13 15	555
2'F-ANA at 1 2 3 4 5 7 8 9 10 12 14 15	46.4
2'F-ANA at 2 6 7 9 14 15	102

Excerpt of the above (block 4):
Modification	mean fluorescence intensity [a.u.]
2'F-ANA at 1 3 4 8 13 15	210
2'F-ANA at 1 2 4 5 7 11	49
2'F-ANA at 1 3 6 9 10 14	59.7
2'F-ANA at 1 2 4 7 8 9 12	277
2'F-ANA at 3 5 6 7 8 12 14 15	58.2
2'F-ANA at 1 2 8 9 11 12	310
2'F-ANA at 2 3 5 7 8 9 10 15	79.6
2'F-ANA at 3 4 7 8 9 10 12 13	350
2'F-ANA at 4 5 6 7 11 15	61.3
2'F-ANA at 5 7 8 11 15	121
2'F-ANA at 2 6 10 11 12	152
2'F-ANA at 1 2 3 5 7 9 13	52.1
